{"data": "Experimental data gathered from unrelated publications", "note": "Every numbered part comes from another study and shows a few of its results, in no order."}
{"data": "Study 1", "target": "Interferon regulatory factor 7, full length, phosphomimetic (IRF7, Homo sapiens, UniProt Q92985, residues 1-503, S471D/S472D/S475D/S476D/S477D/S483D/S484D/S487D)", "method": "protein-binding microarray", "molecule type": "double-stranded DNA, one strand shown", "sample": "in vitro", "tested at": "2200 nM top", "notes": "60-bp whole probe", "added": "salmon DNA 0.4 mg/ml", "relative to": "random background probes", "direction": "higher = stronger binding", "shared flanks, not repeated": "GCCTAGCAC … GTCTTGATTCGCTTGACGCTGCTG", "Target sequence (chain)": "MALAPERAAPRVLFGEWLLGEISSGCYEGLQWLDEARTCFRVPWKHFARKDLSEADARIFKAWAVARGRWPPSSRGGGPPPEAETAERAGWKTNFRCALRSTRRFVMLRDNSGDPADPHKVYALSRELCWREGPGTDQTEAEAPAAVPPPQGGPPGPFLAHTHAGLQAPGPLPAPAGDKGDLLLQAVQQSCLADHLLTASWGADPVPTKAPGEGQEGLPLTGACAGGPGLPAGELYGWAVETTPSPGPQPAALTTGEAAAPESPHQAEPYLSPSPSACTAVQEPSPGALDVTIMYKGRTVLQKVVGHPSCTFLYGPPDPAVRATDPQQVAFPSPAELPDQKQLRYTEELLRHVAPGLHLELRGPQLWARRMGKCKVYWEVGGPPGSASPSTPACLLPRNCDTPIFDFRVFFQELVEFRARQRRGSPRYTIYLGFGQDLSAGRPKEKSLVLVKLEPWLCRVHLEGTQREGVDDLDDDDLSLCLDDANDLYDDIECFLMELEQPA"}
{"Strand": "TATGGCTTCAAGTAACTACAGTGCTAG", "fitted relative affinity": "-0.128 z-score"}
{"Strand": "TCAATTCTCTGTTTATGACTGTGCTAG", "fitted relative affinity": "1.76 z-score"}
{"Strand": "TTAGGTATCCTTAGCCTTTAGTGCTAG", "fitted relative affinity": "-0.017 z-score"}
{"Strand": "CACCGTCTTATTAAAAAACAGTGCTAG", "fitted relative affinity": "0.732 z-score"}
{"Strand": "CCCTTTTCATGCTCTTATATAGTGCTA", "fitted relative affinity": "2.49 z-score"}
{"Strand": "TCAATTGTGGATCTTGCACTGTGCTAG", "fitted relative affinity": "0.507 z-score"}
{"Strand": "GACGGACTGCACTTTCGGGACGTGCTA", "fitted relative affinity": "3.87 z-score"}
{"Strand": "TCAAGTATTTATCTGCAACTGTGCTAG", "fitted relative affinity": "0.263 z-score"}
{"Strand": "GACGGTCTCCTTCACCTGACGTGCTAG", "fitted relative affinity": "0.903 z-score"}
{"data": "Study 2", "target": "Ras GTPase-activating protein-binding protein 1, full length (G3BP1, Homo sapiens, UniProt Q13283)", "method": "RNA Bind-n-Seq", "molecule type": "RNA", "sample": "in vitro", "tested at": "200 nM", "notes": "whole 134-nt RNA, ends assumed", "added": "150 mM KCl", "relative to": "input library", "direction": "higher = stronger binding", "UniProt Q13283, sequence (whole entry, looked up)": "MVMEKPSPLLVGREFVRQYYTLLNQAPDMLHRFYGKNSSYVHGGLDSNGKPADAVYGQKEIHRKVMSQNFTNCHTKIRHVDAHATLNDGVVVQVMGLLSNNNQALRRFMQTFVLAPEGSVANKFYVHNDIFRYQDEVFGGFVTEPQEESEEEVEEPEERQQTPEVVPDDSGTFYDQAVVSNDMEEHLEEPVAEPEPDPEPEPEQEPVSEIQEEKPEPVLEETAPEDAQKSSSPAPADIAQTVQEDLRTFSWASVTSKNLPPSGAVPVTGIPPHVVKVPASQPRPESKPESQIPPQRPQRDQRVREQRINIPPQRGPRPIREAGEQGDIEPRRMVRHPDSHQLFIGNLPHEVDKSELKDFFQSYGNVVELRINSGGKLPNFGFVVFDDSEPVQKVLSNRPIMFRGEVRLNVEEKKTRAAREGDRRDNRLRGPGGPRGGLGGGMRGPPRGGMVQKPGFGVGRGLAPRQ"}
{"Strand": "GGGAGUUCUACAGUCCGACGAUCUGGCCCUGGUGGCAUGCGGGGAGGAAGAGGUGGCCUCAUGGAUCGUGGUGGUCCCGGUGGAAUGUUCAGAGGUGGCCGUGGUGUAGACAGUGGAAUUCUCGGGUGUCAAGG", "log2 enrichment": 0.259}
{"Strand": "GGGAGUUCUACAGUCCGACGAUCGUCCUGUGCUACACAUCGUAUGUACCGAAUCGGAAAAAGGGGAAAAAGGGGAAAAAGGGAAAGUAUUAUGUUACGCCGUUCGGAUCUGCAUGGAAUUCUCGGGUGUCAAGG", "log2 enrichment": -0.228}
{"Strand": "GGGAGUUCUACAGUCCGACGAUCUGGCCCUGGUGGCAUGCGGUGAGGAAGAGGUGGCCUCAUGGAUCGUGGUGGUCCCGGUGGAAUGUUCAGAGGUGGCCGUGGUGGAGACAGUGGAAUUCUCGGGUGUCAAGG", "log2 enrichment": 0.307}
{"Strand": "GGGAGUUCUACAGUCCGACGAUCACCAUGCAGGUGGGCAUCUUUGGGAAGUGGGGCAAGGGGGGGAUAGGGAGGGGGGUAACACUUUGGGAACAGGUGGUCCAAGGUCGUUUCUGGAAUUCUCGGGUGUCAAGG", "log2 enrichment": 1.2}
{"Strand": "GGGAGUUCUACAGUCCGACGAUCCCUGUGCUACACAUCGUAUGUACCGAAUCGGGGUUUUUUUGGUUUUUUUGGUUUUUUUGGAAAGUAUUAUGUUACGCCGUUCGGAUCUGCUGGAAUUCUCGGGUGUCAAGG", "log2 enrichment": -0.761}
{"Strand": "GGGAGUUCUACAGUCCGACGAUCUCAAGUCCUGUGCUACACAUCGUAUGUACCGAAUCGGAAGGGAAGGGGAAGGGGAAAGUAUUAUGUUACGCCGUUCGGAUCUGCACUUCCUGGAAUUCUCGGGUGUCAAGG", "log2 enrichment": 0.986}
{"data": "Study 3", "target": "Histone acetyltransferase KAT6A, both winged helices, GST fusion (KAT6A, Homo sapiens, UniProt Q92794, residues 1-181)", "method": "protein binding microarray", "molecule type": "double-stranded DNA, one strand shown", "sample": "in vitro", "tested at": "not given", "notes": "8-mer, flanks averaged, mean of 2 arrays, mostly near background", "relative to": "not given", "direction": "higher = stronger binding", "Target sequence (chain)": "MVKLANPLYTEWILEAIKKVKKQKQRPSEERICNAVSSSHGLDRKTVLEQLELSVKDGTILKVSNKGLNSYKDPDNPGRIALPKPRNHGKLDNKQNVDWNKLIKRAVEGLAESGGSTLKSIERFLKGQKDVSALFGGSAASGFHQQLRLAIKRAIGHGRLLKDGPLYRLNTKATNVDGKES"}
{"Strand": "ATCCACGC", "E-score": 0.0401}
{"Strand": "ACGTTTTC", "E-score": 0.163}
{"Strand": "GAGTTTGA", "E-score": 0.008}
{"Strand": "CGAATAGC", "E-score": -0.0966}
{"Strand": "CTGAATTC", "E-score": -0.13}
{"Strand": "ATGAGATG", "E-score": -0.157}
{"Strand": "AGTCCCCG", "E-score": 0.0523}
{"data": "Mixed results"}
{"Substance": "PhoQ, residues 284 288 289 292 302 303 AGHLVA", "target": "PhoP, residues 12 14 15 18 19 LYFRQ (Escherichia coli, UniProt P23836)", "assay": "Sort-seq, refers to: YFP reporter", "system": "E. coli", "conditions": "PhoQ-PhoP variant library, added: 10 µM Mg2+", "how to read": "relative to: high Mg2+ state, higher = stronger signaling", "measurement": "fold induction", "result": 3.32}
{"note": "Repeated from above (study 2):"}
{"Strand": "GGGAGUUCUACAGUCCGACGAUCUGGCCCUGGUGGCAUGCGGGGAGGAAGAGGUGGCCUCAUGGAUCGUGGUGGUCCCGGUGGAAUGUUCAGAGGUGGCCGUGGUGUAGACAGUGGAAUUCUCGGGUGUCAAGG", "log2 enrichment": 0.259}
{"Strand": "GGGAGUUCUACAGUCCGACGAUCACCAUGCAGGUGGGCAUCUUUGGGAAGUGGGGCAAGGGGGGGAUAGGGAGGGGGGUAACACUUUGGGAACAGGUGGUCCAAGGUCGUUUCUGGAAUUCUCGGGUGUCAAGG", "log2 enrichment": 1.2}
